Measured values collected from several papers.
Protocols differ between the studies behind these lines. ± marks the error that the study gave.

Structure (SMILES) | test | system | setting | half-life [h]
CC[C@H]1OC(=O)[C@H](C)[C@@H](O[C@H]2C[C@@](C)(OC)[C@@H](O)[C@H](C)O2)[C@H](C)[C@@H](O[C@@H]2O[C@H](C)C[C@H](N(C)C)[C@H]2O)[C@](C)(O)C[C@@H](C)CN(C)[C@H](C)[C@@H](O)[C@]1(C)O | – | whole body | oral, high dose, depuration phase | 1860
N=C(N)NCCC[C@H](NC(=O)[C@H](CCCNC(=N)N)NC(=O)[C@H](CCCNC(=N)N)NC(=O)[C@H](CCCNC(=N)N)NC(=O)[C@H](CCCNC(=N)N)NC(=O)[C@H](CCCNC(=N)N)NC(=O)[C@H](CCCNC(=N)N)NC(=O)[C@H](CCCNC(=N)N)NC(=O)[C@@H](N)CCCNC(=N)N)C(N)=O | – | human serum | 10 µM, 37 °C | 0.0317
Nc1nc(NC2CC2)c2ncn([C@H]3C=C[C@@H](CO)C3)c2n1 | – | HIV-infected children and adolescents, Tanner stage 3-5, plasma | oral, 8 mg/kg | 1.4
O=C1[C@@H](O)[C@@H]2OC[C@@H](O2)[C@H]1O | – | sodium acetate buffer | 10 mM, pH 5.0, 70 °C, β-elimination | 3.5
CC#CC(=O)N1CCC[C@H]1c1nc(-c2ccc(C(=O)Nc3ccccn3)cc2)c2c(N)nccn12 | – | Japanese patients, plasma | oral, 100 mg twice daily, day 8, fasting, multiple dose, arithmetic mean | 1.8
O=C(CCc1ccccc1)N[C@H]1CNC1=O | – | PBS, 10% MeCN | 1 µM, pH 7.4, 37 °C | > 24
N[C@@H](Cc1ccccc1)C(=O)N[C@@H](Cc1ccc(O)cc1)C(=O)OC[C@H]1O[C@@H](n2cc(F)c(=O)[nH]c2=O)C[C@@H]1O | – | human pancreas homogenate | pH 7.4, 37 °C, protein 500 µg/mL | 2.5 ± 0.448
COc1cc(C(=O)c2nc(-c3ccc(C)c(O)c3)ccc2F)cc(OC)c1OC | – | human liver microsomes | 10 µM, pH 7.4, with: NADPH | ~0.5
NC(=O)c1cnc2[nH]ccc2c1N[C@@H]1[C@@H]2CC3C[C@H]1C[C@@](O)(C3)C2 | – | healthy Caucasian men, plasma | oral, 200 mg, single dose fasted | 6.9
CCCCCCCCC(=O)N[C@H]1CNC1=O | – | phosphate buffer, 10% MeCN | 1 µM, pH 5.0, 37 °C | > 24
CC[C@H](C)[C@H](N)C(=O)OC[C@H]1O[C@@H](n2cc(F)c(=O)[nH]c2=O)C[C@@H]1O | – | human small intestine homogenate | pH 7.4, 37 °C, protein 1000 µg/mL | 0.168 ± 0.00667
O=C(NO)c1cncc(OS(=O)(=O)Oc2ccc3ccccc3c2)c1 | – | buffer with or without glutathione | 50 µM, pH 7.4, 37 °C, with: glutathione 2 mM | > 20
O=C1Nc2ccccc2C(=O)CCc2ccccc21 | – | mouse blood | 1 µM, 6 h incubation, 37 °C | 5.9
COc1cc(OC)c(/C=C/S(=O)(=O)Cc2ccc(OC)c(NCC(=O)O)c2)c(OC)c1 | – | cancer patients, phase I, plasma | oral, 560 mg twice daily, day 1 cycle 1 | 2.42 ± 1.1
CC(C)(c1ccc(O)cc1)c1ccc(O)cc1 | GC-MS | exposure tank water | 5000 ng/L, 27 °C | 3.25
N=C(Nc1ccc(OCCCCCCCCCCn2ccnc2)cc1)c1ccccn1 | LC-MS | mouse liver microsomes | 3 µM | 0.867 to 1.13
COc1ccc(F)c(CCCC2CCC(CCNCCCCCN3N=C(c4ccc(OC)c(OC)c4)[C@H]4CC=CC[C@H]4C3=O)O2)c1 (stereo partly drawn) | – | human liver microsomes | 40 µM, pH 7.4, 37 °C, with: NADPH | > 1
O=C(C1CC1)n1cc2c(n1)CCC(Br)(Br)C2=O | – | aqueous buffer | spontaneous hydrolysis | 4

Structure (SMILES) | test | system | setting | half-life [h]
CC(C)C[C@H](NC(=O)[C@H](CO)NC(=O)[C@H](CO)NC(=O)[C@H](CC(C)C)NC(=O)[C@@H](NC(=O)[C@@H]1CCCN1C(=O)[C@H](Cc1c[nH]c2ccccc12)NC(=O)[C@H](Cc1ccc(O)cc1)NC(=O)[C@@H]1CCCN1C(=O)[C@H](CC(C)C)NC(=O)[C@H](Cc1ccc(O)cc1)NC(=O)[C@@H](N)CCCCN)C(C)C)C(=O)O | residual EphA4 binding inhibition | PC-3 conditioned medium | 100 µM, 37 °C | 8 to 12
C[C@]12C=CC(=O)C=C1CC[C@@H]1[C@@H]2[C@@H](O)C[C@@]2(C)[C@H]1C[C@H]1O[C@@H](C3CCCCC3)O[C@]12C(=O)CO | – | children with asthma, serum | inhaled, 160 µg ciclesonide, day 7, HFA-MDI with spacer | 3.19 ± 0.22
CS(=O)(=O)n1cc2c(n1)CN([C@H]1CO[C@H](c3cc(F)ccc3F)[C@@H](N)C1)C2 | – | healthy Japanese men, plasma | oral, 25 mg once weekly, day 15 | 82.5
CC(=O)OCCC(O)(CF)CC(=O)NCc1ccccc1 (stereo not drawn) | – | human plasma | 4 mM, 37 °C | 0.5
CCOc1ccc(Cc2cc([C@@H]3S[C@H](CO)[C@@H](O)[C@H](O)[C@H]3O)c(OC)cc2C)cc1 | – | Japanese type 2 diabetes patients, plasma | oral, 5 mg single dose, eGFR ≥90 mL/min/1.73 m^2 | 10.4 ± 0.832
N[C@@H](Cc1c[nH]cn1)C(=O)NCCc1c[nH]c2ccccc12 | – | mouse plasma | 500 ng/mL, up to 4 h, 37 °C | > 16.7
CC(C)[C@H](N)C(=O)N[C@@H](Cc1ccccc1)C(=O)OC[C@H]1O[C@@H](n2cc(F)c(=O)[nH]c2=O)C[C@@H]1O | – | human small intestine homogenate | pH 7.4, 37 °C, protein 1000 µg/mL | 0.897 ± 0.0283
COc1ccc2c3c1O[C@H]1C[C@@H](OC(=O)c4ccccc4)C=C[C@@]31CCN(C)C2 | – | healthy elderly men, plasma | intranasal, 33 mg, single dose | 2.34
CCC(CC)COC(=O)[C@H](C)N[P@](=O)(OC[C@H]1O[C@@](C#N)(c2ccc3c(N)ncnn23)[C@H](O)[C@@H]1O)Oc1ccccc1 | – | human liver microsomes | 1 µM, pH 7.4, with: NADPH, cobicistat | 0.68
Nc1cc(F)ccc1NC(=O)c1ccc(CNC(=O)/C=C/c2cccnc2)cc1 | – | Japanese patients, plasma | oral, 30 mg twice weekly, cycle 1 day 25, arithmetic mean | 21.6
COc1ccc2[nH]c([S+]([O-])Cc3ncc(C)c(OC)c3C)nc2c1 (stereo not drawn) | – | healthy Chinese, CYP2C19 intermediate metabolizers, plasma | oral, 20 mg single dose | 1.12 ± 0.6
Cc1cn(CC(=O)N[C@@H](Cc2ccccc2)C(=O)N(C)c2ccc(Cl)cc2)c(=O)[nH]c1=O | – | human liver microsomes | 1 µM, pH 7.4, with: cobicistat 0.5 µM | > 2
NC(=O)c1cnc2[nH]ccc2c1N[C@@H]1[C@@H]2CC3C[C@H]1C[C@@](O)(C3)C2 | – | Japanese, normal hepatic function | oral, 150 mg single dose, range of means | 3.3 to 18.4
CCN1CCN(Cc2ccc(Nc3ncc(F)c(-c4cc(F)c5nc(C)n(C(C)C)c5c4)n3)nc2)CC1 | population PK model | patients, plasma | oral, 200 mg single dose | 24.8
Cc1ccc(NC(=O)c2ccc(CN3CCN(C)CC3)cc2)cc1Nc1nccc(-c2cncc(-c3oncc3C)c2)n1 | – | healthy volunteers, plasma | oral, 200 mg once daily, day 1, 7-day dosing, mean | 17.7
CCN(C(=O)[C@H](Cc1ccccc1)NC(=O)CNC(=O)c1ccccc1)c1ccccc1 | – | human liver microsomes | 1 µM, pH 7.4, with: cobicistat 0.5 µM | > 2
CN(Cc1cc(Cl)cc(Cl)c1)Cc1cc(=O)[nH][nH]1.Cl | – | mouse liver microsomes | with: NADPH | 0.85
CC[C@H](C)[C@H](NC(=O)[C@H](C)NC(=O)[C@H](CCC(=O)O)NC(=O)[C@H](CCSC)NC(=O)[C@@H](NC(=O)[C@@H](N)C(C)C)[C@@H](C)O)C(=O)N[C@@H](CC(N)=O)C(=O)N[C@@H](CC(C)C)C(=O)N[C@@H](C)C(=O)N[C@@H](Cc1ccccc1)C(=O)N1CCC[C@H]1C(=O)NCC(=O)O | residual EphA4 binding inhibition | PC-3 conditioned medium | 500 µM, 37 °C | ~30

A few entries again:
Structure (SMILES) | test | system | setting | half-life [h]
N=C(N)NCCC[C@H](NC(=O)[C@H](CCCNC(=N)N)NC(=O)[C@H](CCCNC(=N)N)NC(=O)[C@H](CCCNC(=N)N)NC(=O)[C@H](CCCNC(=N)N)NC(=O)[C@H](CCCNC(=N)N)NC(=O)[C@H](CCCNC(=N)N)NC(=O)[C@H](CCCNC(=N)N)NC(=O)[C@@H](N)CCCNC(=N)N)C(N)=O | – | human serum | 10 µM, 37 °C | 0.0317
COc1ccc2[nH]c([S+]([O-])Cc3ncc(C)c(OC)c3C)nc2c1 (stereo not drawn) | – | healthy Chinese, CYP2C19 intermediate metabolizers, plasma | oral, 20 mg single dose | 1.12 ± 0.6
CC[C@H](C)[C@H](NC(=O)[C@H](C)NC(=O)[C@H](CCC(=O)O)NC(=O)[C@H](CCSC)NC(=O)[C@@H](NC(=O)[C@@H](N)C(C)C)[C@@H](C)O)C(=O)N[C@@H](CC(N)=O)C(=O)N[C@@H](CC(C)C)C(=O)N[C@@H](C)C(=O)N[C@@H](Cc1ccccc1)C(=O)N1CCC[C@H]1C(=O)NCC(=O)O | residual EphA4 binding inhibition | PC-3 conditioned medium | 500 µM, 37 °C | ~30
Cc1ccc(NC(=O)c2ccc(CN3CCN(C)CC3)cc2)cc1Nc1nccc(-c2cncc(-c3oncc3C)c2)n1 | – | healthy volunteers, plasma | oral, 200 mg once daily, day 1, 7-day dosing, mean | 17.7
COc1ccc2c3c1O[C@H]1C[C@@H](OC(=O)c4ccccc4)C=C[C@@]31CCN(C)C2 | – | healthy elderly men, plasma | intranasal, 33 mg, single dose | 2.34
